Published values from different studies.
Lines come from different studies, so protocols differ. ± gives the spread as reported.
Cell line: HeLa

| Compound | assay | setting | scale | measurement | value |
| --- | --- | --- | --- | --- | --- |
| NC([S-])=NN=CC=NN=C(N)[S-].O=[N+]([O-])[O-].[Co+3].c1c[nH]cn1.c1c[nH]cn1 | cell growth or viability, MTT | – | – | IC50 | 7.4 µM |
| CC1(C)Cc2cc3[nH]c(cc4nc(cc5[nH]c(cc1n2)cc5C#CC[N+](C)(C)C)CC4(C)C)cc3C#CC[N+](C)(C)C.[Cl-].[Cl-] | phototoxicity, MTT | 24 h, 10 J/cm^2 irradiation | – | LD50 | 2000 nM |
| CCOP(=O)(OCC)[C@H]1C[C@@H](Cn2c(=O)n(C(=O)c3ccccc3)c(=O)c3ccccc32)ON1Cc1ccccc1 (relative stereo) | cell growth or viability | 96 h | – | IC50 | > 250 µM |
| NC[C@@H]1[C@H]2CN3C(=O)c4cccn4[C@@H]4NC(N)=N[C@@]43[C@@H]2[C@]2(N=C(N)N[C@H]2O)[C@H]1Cl.O=C(O)C(F)(F)F (racemic) | confocal microscopy | concentration not given, 30 min pretreatment, with: TNF-α 20 ng/mL 30 min | baseline: TNF-α with vehicle | IκBα degradation | inhibited |
| C#CCN(Cc1cnc2nc(N)nc(N)c2n1)c1ccc(C(=O)N[C@@H](CCC(=O)O)C(=O)O)cc1 | cell growth or viability | 24 h | – | EC50 | > 99 µM |
| O=[N+]([O-])[O-].O=[N+]([O-])[O-].[Co+2] | cell growth or viability, MTT | – | – | IC50 | > 500 µM |
| CC[C@H](C)[C@@H]([C@@H](CC(=O)N1CCC[C@H]1[C@H](OC)[C@@H](C)C(=O)N[C@H](C)[C@@H](O)c1ccccc1)OC)N(C)C(=O)[C@@H](NC(=O)[C@@H](NC)C(C)C)C(C)C | cell growth or viability | 72 h | – | IC50 | ~0.004 µM |
| N#CC(=C(/N)Sc1ccccc1N)/C(C#N)=C(/N)Sc1ccccc1N | H1R promoter reporter gene | with: PMA 100 nM for 10 h | – | IC50 | 0.69 µM |
| CSCC[C@H](NC(=O)[C@H](CCC(N)=O)NC(=O)[C@H](CCC(N)=O)NC(=O)[C@H](CO)NC(=O)[C@H](CCCNC(=N)N)NC(=O)[C@H](CCC(=O)O)NC(=O)CNC(=O)[C@H](CC(C)C)NC(=O)CNC(=O)[C@H](CC(N)=O)NC(=O)[C@@H](NC(=O)[C@@H](N)CCC(N)=O)C(C)C)C(=O)O | CCK-8 | 36 h | – | IC50 | 230 ± 20.1 mg/L |
| CC1(C)Cc2cc3[nH]c(cc4nc(cc5[nH]c(cc1n2)cc5C(=O)N1CC[N+](C)(C)CC1)CC4(C)C)cc3C(=O)N1CC[N+](C)(C)CC1.[Cl-].[Cl-] | phototoxicity, MTT | 24 h, 10 J/cm^2 irradiation | – | LD50 | 800 nM |
| CN[C@@H]1C[C@H]2O[C@@](C)([C@@H]1OC)n1c3ccccc3c3c4c(c5c6ccccc6n2c5c31)C(=O)NC4 | annexin V/PI flow cytometry | 300 nM, 4 h | – | apoptotic cells | 38.5 ± 6.74% |
| CNCCCNC(=O)O[C@H]1CC[C@@]2(C)[C@H](CC[C@@H]3[C@@H]2CC[C@]2(C)[C@@H](c4ccc(=O)oc4)CC[C@]32O)C1 | cell growth or viability, MTT | – | – | IC50 | 0.115 µM |
| N.N.[Cl][Pt][Cl] | cell growth or viability, MTT | 72 h | – | IC50 | 1.37 µM |
| N.N.[Cl][Pt][Cl] | cell growth or viability, resazurin | – | – | IC50 | 4.31 µM |
| CC12CCC(OC(=O)NCCCn3ccnc3)CC1CCC1C2CCC2(C)C(c3ccc(=O)oc3)CCC12O (stereo not drawn) | cell growth or viability, MTT | – | – | IC50 | 0.0473 µM |

Repeated from above:
| Compound | assay | setting | scale | measurement | value |
| --- | --- | --- | --- | --- | --- |
| CNCCCNC(=O)O[C@H]1CC[C@@]2(C)[C@H](CC[C@@H]3[C@@H]2CC[C@]2(C)[C@@H](c4ccc(=O)oc4)CC[C@]32O)C1 | cell growth or viability, MTT | – | – | IC50 | 0.115 µM |
